Assay results of several laboratories.
Protocols differ between the studies behind these lines.
Organism: Pseudomonas aeruginosa

Molecule | assay | test system | conditions | MIC
CCc1cc(=O)c2c(OCC3CO3)c3ccoc3c(OC)c2o1 (stereo not drawn) | broth microdilution | ATCC 15442 | 19 h, 35 °C | > 256 µg/mL
CC1(C)S[C@@H]2[C@H](NC(=O)[C@H](N)c3ccccc3)C(=O)N2[C@H]1C(=O)O |  |  |  | > 367 µM
CCc1cc(=O)c2c(OCC(O)CN3CCCCC3)c3ccoc3c(OC)c2o1 (stereo not drawn) | broth microdilution | ATCC 15442 | 19 h, 35 °C | > 256 µg/mL
O=C(Nc1ccc(Br)c(C(F)(F)F)c1)c1ccccc1O | microbial growth, broth dilution | ATCC27853 |  | > 64 µg/mL
CC[C@H](C)[C@H](NC(=O)[C@H](Cc1c[nH]cn1)NC(=O)[C@H](Cc1c[nH]cn1)NC(=O)[C@H](Cc1ccccc1)NC(=O)[C@@H](N)Cc1ccccc1)C(=O)N[C@@H](Cc1ccccc1)C(=O)N[C@@H](CCCNC(=N)N)C(=O)NCC(=O)N[C@@H](CCCCN)C(=O)N[C@H](C(=O)N[C@@H](Cc1c[nH]cn1)C(=O)N[C@H](C(=O)NCC(=O)N[C@@H](CCCCN)C(=O)N[C@H](C(=O)N[C@H](C(=O)N[C@@H](Cc1c[nH]cn1)C(=O)N[C@@H](CCCNC(=N)N)C(=O)N[C@@H](CC(C)C)C(=O)N[C@H](C(=O)N[C@H](C(=O)NCC(N)=O)[C@@H](C)O)C(C)C)[C@@H](C)CC)[C@@H](C)O)C(C)C)C(C)C | broth microdilution | ATCC 10662 | 18 h, 37 °C | 25 µg/mL
CC(C)C[C@H](NC(=O)CNC(=O)[C@H](C)NC(=O)c1ccc(S(=O)(=O)NC[C@H]2O[C@@H](C)[C@@H](O)[C@@H](O)[C@@H]2O)cc1)C(=O)N[C@@H](C)C(=O)NC[C@@H]1CCN(c2cc3c(cc2F)c(=O)c(C(=O)O)cn3C2CC2)C1 | broth microdilution | PA14, 50% human plasma with 10% P. aeruginosa supernatant | 3 h preincubation | 1.56 to 3.13 µM
C[C@H]1COc2c(N3CCN(C)CC3)c(F)cc3c(=O)c(C(=O)O)cn1c23 | microbial growth, broth dilution | ATCC27853 |  | 1 µg/mL
CCc1cc(=O)c2c(O)c3ccoc3c(OC)c2o1 | broth microdilution | ATCC 15442 | 19 h, 35 °C | > 256 µg/mL
CC(C)C[C@H](NC(=O)CNC(=O)[C@H](C)NC(=O)c1ccc(S[C@@H]2O[C@H](CO)[C@H](O)[C@H](O)[C@H]2O)cc1)C(=O)N[C@@H](C)C(=O)N[C@H]1CCN(c2cc3c(cc2F)c(=O)c(C(=O)O)cn3C2CC2)C1 | broth microdilution | PA14, human plasma with P. aeruginosa supernatant | 50% plasma, 10% supernatant, preincubation under 10 min | 0.195 to 0.39 µM
CC1(C)S[C@@H]2[C@H](NC(=O)[C@H](N)c3ccccc3)C(=O)N2[C@H]1C(=O)O | microbial growth, broth dilution | MTCC1688 | 48 h | 100 µg/mL
O=C(Nc1ccccc1)c1ccccc1 | microbial growth, broth dilution | ATCC27853 |  | > 64 µg/mL
CC(C)C[C@H](NC(=O)CNC(=O)[C@H](C)NC(=O)c1ccc(S(=O)(=O)NC[C@H]2O[C@@H](C)[C@@H](O)[C@@H](O)[C@@H]2O)cc1)C(=O)N[C@@H](C)C(=O)N[C@H]1CCN(c2cc3c(cc2F)c(=O)c(C(=O)O)cn3C2CC2)C1 | broth microdilution | PA14, human plasma with LB in PBS | 50% plasma, 10% LB, pre-incubation 3 h | 0.78 to 6.25 µM
Polymyxin B | broth microdilution | PAO1, Mueller-Hinton broth | 18 h, 37 °C | 2 µg/mL
O=C(Nc1ccc(Cl)c(C(F)(F)F)c1)c1ccccc1O | microbial growth, broth dilution | ATCC27853 |  | > 64 µg/mL
CC(C)C[C@H](NC(=O)CNC(=O)[C@H](C)NC(=O)c1ccc(S[C@@H]2O[C@H](CO)[C@H](O)[C@H](O)[C@H]2O)cc1)C(=O)N[C@@H](C)C(=O)NC[C@@H]1CCN(c2cc3c(cc2F)c(=O)c(C(=O)O)cn3C2CC2)C1 | broth microdilution | PA14, culture supernatant in PBS | 10% supernatant, pre-incubation under 10 min | 1.56 to 3.13 µM

A few entries again:
Molecule | assay | test system | conditions | MIC
CC(C)C[C@H](NC(=O)CNC(=O)[C@H](C)NC(=O)c1ccc(S(=O)(=O)NC[C@H]2O[C@@H](C)[C@@H](O)[C@@H](O)[C@@H]2O)cc1)C(=O)N[C@@H](C)C(=O)NC[C@@H]1CCN(c2cc3c(cc2F)c(=O)c(C(=O)O)cn3C2CC2)C1 | broth microdilution | PA14, 50% human plasma with 10% P. aeruginosa supernatant | 3 h preincubation | 1.56 to 3.13 µM
CC1(C)S[C@@H]2[C@H](NC(=O)[C@H](N)c3ccccc3)C(=O)N2[C@H]1C(=O)O |  |  |  | > 367 µM
